# Experimental data from different studies.
# A part holds a random share of what one study measured. Changes are numbered by the printed parent chain.

# Block 1
# Target: Fragile X messenger ribonucleoprotein 1, C-terminal low-complexity region (Fmr1, Mus musculus, UniProt P35922)
# Method: RNA Bind-n-Seq
# Molecule type: RNA
# Sample: in vitro
# Concentration: 200 nM
# Notes: whole 134-nt RNA, ends assumed
# Together with: 150 mM LiCl
# Reference: input library
# Reading: higher = stronger binding
# Each molecule: 7-deaza-guanosine replaces G
# All sequences stand within: GGGAGUUCUACAGUCCGACGAUC … UGGAAUUCUCGGGUGUCAAGG
Oligonucleotide,log2 enrichment
CUCAAGUCCUGUGCUACACAUCGUAUGUACCGAAUCGGGGAAGGAAGGGAAGGGAAAGUAUUAUGUUACGCCGUUCGGAUCUGCACUUCC,-0.537
AGGAAAAUGUUUAUAGGAGGCCUUAGCUGGGACACUACAAAGAAAGAUCUGAAGGACUACUUUUCCAAAUUUGGUGAAGUUGUAGACUGC,-1.44
AAGUCCUGUGCUACACAUCGUAUGUACCGAAUCGGGUUUUUUUGGGUGGGAAAGGGAAAGUAUUAUGUUACGCCGUUCGGAUCUGCACUU,-1.29
UCCUGUGCUACACAUCGUAUGUACCGAAUCGGGGAAAAAAGGAAAAAAGGAAAAAAGGGGAAAGUAUUAUGUUACGCCGUUCGGAUCUGC,-0.635
UGGGAGGUGGAUUUUGUUUAUUUUUCUAGCUCAUUUCCAGGGGUGGGAAUUUUUUUUUAAUAUGUGUCAUGAAUAAAGUUGUUUUUGAAA,-0.0513
CCUCAAGUCCUGUGCUACACAUCGUAUGUACCGAAUCGGUUUUUGGUGGAGGAAAGUAUUAUGUUACGCCGUUCGGAUCUGCACUUCCAG,-0.012
GCAGGAAGUAAAAACAAAUGGAAAUGCUUCGGAUAGUGGCAGGGGUGGGGGUUGCUAAGGAAAGGGUGGGAUGAAAGUGGGUAAAGAGUU,1.48
UCAAGUCCUGUGCUACACAUCGUAUGUACCGAAUCGGGUGGGAGGGAAAAAGGGAAAGUAUUAUGUUACGCCGUUCGGAUCUGCACUUCC,-0.587
UCCUGUGCUACACAUCGUAUGUACCGAAUCGGGUUUUUUUGGGUUUUUUUGGGUUUGGGAAAGUAUUAUGUUACGCCGUUCGGAUCUGCA,0.885
CAAGUCCUGUGCUACACAUCGUAUGUACCGAAUCGGGGUGGGGUGGGGUUUGGGGAAAGUAUUAUGUUACGCCGUUCGGAUCUGCACUUC,-0.904
UGGGAGGUGGAUUUUGUUUAUUUUUUUAGCUCAUUUCCAGGGGUGGGAAUUUUUUGUUAAUAUGUGUCAUGAAUAAAGUUGUUUUUGAAA,-0.517

# Block 2
# Target: RNA binding protein fox-1 homolog 2, RRM domain, GST-SBP tag (RBFOX2, Homo sapiens, UniProt O43251-10, residues 100-194)
# Method: RNA Bind-n-Seq
# Molecule type: RNA
# Sample: in vitro
# Concentration: 365 nM
# Notes: natural RNA segment, single round, ends assumed
# Reference: no-protein control
# Reading: higher = stronger binding
# All sequences stand within: GGGAGUUCUACAGUCCGACGAUC … UGGAAUUCUCGGGUGCCAA
# Target sequence (chain): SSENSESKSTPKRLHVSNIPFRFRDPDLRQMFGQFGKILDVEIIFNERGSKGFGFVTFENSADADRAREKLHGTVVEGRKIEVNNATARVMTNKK
Oligonucleotide,RBNS enrichment (R)
UGGGUCAACGAGGAGGACCACCUGCGGGUCAUCUCCAUGCAGAAGGGGGGCAACAUGAAGGAGGUGUUCACCCGCUUCUGCACCGGCCUCACCCAGAUUGAAACUCUCUU,0.413
UUAUUUUUUGAUGGUAAUAUUCUAUCCUUAUGACACUAUUGCAACCAAAUUGGCUUUACCAUCUUGGCUUUAGUAGGUAUAGAAGACAAUGGAUUACCAUCUUUAUUGCU,0.516
GGCUCUAUCUCAGAGGUGCUGCUCUUGCAGGUGACCUGGUUGCAUAGCUAGGAUUAGUAAUUUGUACUGCUUUCUGGUCAUUUGAAGAGCCCUUUAGUUUUGAUGAUAUU,0.406
AUCCCAAUAUCUGCCCUAAGUGAUUUUUGAGAACAGGGUUUCAUGUAUCCCAGCCAGCCUGGGUCUCACUGUAUAGCUGGAGAGACUUUCGAAAUUGUAUCCUUCUGACU,0.502
UUUGGGACACACUGUCCACACUCCACCAAGAGCUACACAGAUUCCCACAUAAAGAUAGUGCCCUAAGUUGUAAUCAGAACACUUGAGCAAGGAGUUAAAUGGAGGAGUAA,0.346
UGUGCUUUCCUAUGGAAAAAAUACAUAUAUAGUUUAGUUUGUUAGACGUGAGUUAUCCAAGUAUUUAUUUUGUGUAGUGUGUAAGAAUGCUAAAUAAAAUGUUAUACAAG,0.384
UUUCAUCUUUUAUGAUAUAAAAUGAUGGCUAUCAAAUGAUUUUCCAUACAUUGUACUGAUCAAGUUAUACACCCAGGGGUAUAUACACUUUCUUCAUGUUUCUUCUUUGU,0.514
GGAGAUCAGCCGCCCCCACCCACACACACACCAAGAAAAGGCGGGGUGAGGGAGGGAUCUAAGUAGAAAAAGAUGAGUUCUGAUCUUCUUUAUCUCUUCUAAACUGUGUU,0.401
UUGACCUUUGGACGCCACCUGUAAUCACUCUGGAUGGUGUCUGUGGAGUUCAGGUUUAUUUUCUAUUUAAAUGAACUAAAAGCCAGCAUCCUGCCGGGCGUGGUGGCUCA,0.326
GACAUUGUCUUCUACUGUUCUGCCAGGUUCUUCUUGAGCUUUGGGCCUCAGUUGCCCUGGCAGAAAAAUGGAUUCAACUUGGCCUUUCUGAAGGCAAGACUGGGAUUGGA,0.456
UAUUCCAAGUCUCUGGUUUCCUAAGAUACAUAAUAACUGUUUAUAAAGAAGGUCUAAGAGCUGAUAUUUGCCAAAGUGAUAGAAGAGUUGUUUUUUCCUCUCUACUACCA,0.445
AUCCUCAAGGCCCUGCCCCAGUGAGACCCUGGGGCCCCUUGGCGGGCAGCCCAGCCUCUGUCCCUCUUUGCCUGUGUGAGCAUCUCUGUGUACCCACUCCUCACUGCCCC,0.668

# Block 3
# Target: CCNB2, cyclin fold, Cln2 fusion (human)
# Method: yeast growth competition, sequencing
# Sample: yeast
# Notes: weak parent motif
# Reference: not given
# Reading: higher = stronger binding
# Parent: ORC1 docking peptide (human); PRARKRLELGNLG
Substitution,normalised enrichment score
E8A,0.805
E8L,0.133
G10V,0.566
E8K,0.323
P1F,-0.11
R4T,0.741
P1H,0.452
R6P,-0.0572
R6G,0.962
R2K,0.274
R2Q,0.253
G10N,0.0362
E8C,0.358
A3Q,0.781
A3E,0.858
G10D,0.559
K5I,0.365
L9D,0.206
L12F,0.489
R2A,0.672
L9A,1.08
E8Y,0.382
L7I,0.446
L12S,0.298
A3M,1.51

# Block 4
# Target: ABI1, truncated, D143A, DHFR fusion (Arabidopsis thaliana)
# Method: DHFR PCA, deep sequencing
# Sample: yeast
# Notes: methotrexate growth selection, single substitutions
# Together with: (+)-ABA 0.032 µM
# Reference: wild-type fitted maximum
# Reading: higher = stronger binding
# Parent: PYL1, truncated, DHFR fusion (Arabidopsis thaliana); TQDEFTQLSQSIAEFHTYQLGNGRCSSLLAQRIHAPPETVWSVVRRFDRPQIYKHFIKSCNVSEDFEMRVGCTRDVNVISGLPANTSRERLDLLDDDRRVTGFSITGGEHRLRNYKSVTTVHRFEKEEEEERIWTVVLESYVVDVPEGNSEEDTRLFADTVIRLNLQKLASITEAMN; partner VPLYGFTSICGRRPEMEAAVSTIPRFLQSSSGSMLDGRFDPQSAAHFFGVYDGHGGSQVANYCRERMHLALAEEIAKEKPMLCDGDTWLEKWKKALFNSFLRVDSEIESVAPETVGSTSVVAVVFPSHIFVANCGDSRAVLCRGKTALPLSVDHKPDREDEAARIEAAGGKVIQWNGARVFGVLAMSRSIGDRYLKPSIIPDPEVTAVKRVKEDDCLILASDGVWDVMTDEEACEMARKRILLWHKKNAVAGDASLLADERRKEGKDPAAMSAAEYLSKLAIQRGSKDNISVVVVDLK
Substitution,relative binding score
I79E,12.7%
V100A,25.5%
D3E,39.8%
T154Q,-0.987%
S80A,10.8%
R46K,3.11%
V76Q,-7.37%
S11N,4.6%
N22H,40.2%
S171R,39.9%
I79P,2.35%
K116E,-2.89%
S87F,32.7%
S150P,5.26%

# Block 5
# Target: Sal-like protein 4, full length isoform B (SALL4, Homo sapiens, UniProt Q9UJQ4-2, residues 1-616)
# Method: universal PBM
# Molecule type: double-stranded DNA, one strand shown
# Sample: in vitro
# Concentration: not given
# Notes: 8-mer, flanks averaged, mean of replicates
# Reading: higher = stronger binding
Oligonucleotide,E-score
CATGCGGA,-0.184
CTTTATTC,0.0955
CACACATC,-0.141
CATTCTCA,0.108
CCTACACG,-0.126
CCGGGGGA,-0.377
CGAAGGCG,-0.177
CTAAGACA,0.0863
ATGGGTGA,-0.043
CCCTGTCG,-0.314
TTATTCAA,0.348
CTTAGTCA,-0.0386
GATCGCCA,-0.123
AGAAATGG,0.0636
AAATTCAC,0.139
ACGAGTTG,-0.0634
TAGAGGGA,0.0273
GCTGAAAC,-0.0713

# Repeated from above (block 4):
Substitution,relative binding score
T154Q,-0.987%
S80A,10.8%
R46K,3.11%
V76Q,-7.37%
S11N,4.6%
N22H,40.2%
S171R,39.9%
I79P,2.35%
